Measurements pooled from the literature.
Compare with care: the assays were run in different laboratories.
Cell line: CCRF-CEM

SMILES	assay	setting	quantity	result
COc1ccc(C[C@H]2COC(=O)[C@@H]2Cc2ccc(OCC(=O)NCCCCC(=O)Nc3ccccc3N)c(OC)c2)cc1OC	cell growth or viability, CCK-8	48 h	IC50	> 5 µM
Nc1ncnc2c1ncn2[C@@H]1O[C@H](CO)[C@@H](O)[C@H](F)[C@H]1O	cell growth or viability	–	IC50	124 µM
O=c1[nH]cc(F)c(=O)[nH]1	cell growth or viability	72 h	IC50	18 µM
COc1ccc(C[C@H]2COC(=O)[C@@H]2Cc2ccc(OCC(=O)Nc3ccc(C(=O)Nc4ccccc4N)cc3)c(OC)c2)cc1OC	cell growth or viability, CCK-8	48 h	IC50	2.21 µM
Cc1cc(O)c2c(c1)C(=O)c1cc(O)cc(O)c1C2=O	cell growth or viability, ATP luminescence	24 h	IC50	22 µM
Nc1ccn([C@@H]2O[C@H](CO)[C@@H](O)[C@H](F)[C@H]2O)c(=O)n1	cell growth or viability	–	IC50	155 µM
C#C[C@@]1(O)[C@@H](CO)O[C@@H](n2cc(Cl)c3c(N)ncnc32)[C@@H]1O	cell growth or viability, SRB	48 h	GI50	248 nM
O=c1cc(-c2ccccc2)oc2cc(O)cc(O)c12	cell growth or viability, ATP luminescence	24 h	IC50	128 µM
COc1ccc(C[C@H]2COC(=O)[C@@H]2Cc2ccc(OCc3cn(CC(=O)NO)nn3)c(OC)c2)cc1OC	cell growth or viability, CCK-8	48 h	IC50	> 5 µM
CCOP(=O)(OCC)[C@H]1C[C@@H](Cn2c(=O)n(C(=O)c3ccccc3)c(=O)c3ccccc32)ON1Cc1ccccc1 (relative stereo)	cell growth or viability	72 h	IC50	≥ 250 µM
COc1ccc(-c2nc([C@@H](C)Sc3nc(N)cc(N)n3)c(C)s2)cc1OCCN1CCOCC1	rescue from gemcitabine toxicity, CellTiter-Glo	72 h, added: gemcitabine 10 nM	EC50	10.2 nM
O=c1c(O)c(-c2ccc(O)c(O)c2)oc2cc(O)cc(O)c12	cell growth or viability, ATP luminescence	24 h	IC50	10 µM
COc1ccc(C[C@H]2COC(=O)[C@@H]2Cc2ccc(OCC(=O)NCCC(=O)Nc3ccccc3N)c(OC)c2)cc1OC	cell growth or viability, CCK-8	48 h	IC50	> 5 µM
O=C1c2cccc(O)c2C(=O)c2c(O)cc(CO)cc21	cell growth or viability, ATP luminescence	24 h	IC50	211 µM
C#C[C@@]1(O)[C@@H](CO)O[C@@H](n2cc(Br)c3c(N)ncnc32)[C@@H]1O	cell growth or viability, SRB	48 h	GI50	213 nM

Excerpt of the above:
SMILES	assay	setting	quantity	result
COc1ccc(C[C@H]2COC(=O)[C@@H]2Cc2ccc(OCC(=O)NCCC(=O)Nc3ccccc3N)c(OC)c2)cc1OC	cell growth or viability, CCK-8	48 h	IC50	> 5 µM
O=C1c2cccc(O)c2C(=O)c2c(O)cc(CO)cc21	cell growth or viability, ATP luminescence	24 h	IC50	211 µM
